Results of several laboratories.
Every numbered part comes from another study and shows a few of its results, in no order. Positions count from the first letter of the parent shown.
Chain of UniProt P10721 (whole entry, unmodified, looked up): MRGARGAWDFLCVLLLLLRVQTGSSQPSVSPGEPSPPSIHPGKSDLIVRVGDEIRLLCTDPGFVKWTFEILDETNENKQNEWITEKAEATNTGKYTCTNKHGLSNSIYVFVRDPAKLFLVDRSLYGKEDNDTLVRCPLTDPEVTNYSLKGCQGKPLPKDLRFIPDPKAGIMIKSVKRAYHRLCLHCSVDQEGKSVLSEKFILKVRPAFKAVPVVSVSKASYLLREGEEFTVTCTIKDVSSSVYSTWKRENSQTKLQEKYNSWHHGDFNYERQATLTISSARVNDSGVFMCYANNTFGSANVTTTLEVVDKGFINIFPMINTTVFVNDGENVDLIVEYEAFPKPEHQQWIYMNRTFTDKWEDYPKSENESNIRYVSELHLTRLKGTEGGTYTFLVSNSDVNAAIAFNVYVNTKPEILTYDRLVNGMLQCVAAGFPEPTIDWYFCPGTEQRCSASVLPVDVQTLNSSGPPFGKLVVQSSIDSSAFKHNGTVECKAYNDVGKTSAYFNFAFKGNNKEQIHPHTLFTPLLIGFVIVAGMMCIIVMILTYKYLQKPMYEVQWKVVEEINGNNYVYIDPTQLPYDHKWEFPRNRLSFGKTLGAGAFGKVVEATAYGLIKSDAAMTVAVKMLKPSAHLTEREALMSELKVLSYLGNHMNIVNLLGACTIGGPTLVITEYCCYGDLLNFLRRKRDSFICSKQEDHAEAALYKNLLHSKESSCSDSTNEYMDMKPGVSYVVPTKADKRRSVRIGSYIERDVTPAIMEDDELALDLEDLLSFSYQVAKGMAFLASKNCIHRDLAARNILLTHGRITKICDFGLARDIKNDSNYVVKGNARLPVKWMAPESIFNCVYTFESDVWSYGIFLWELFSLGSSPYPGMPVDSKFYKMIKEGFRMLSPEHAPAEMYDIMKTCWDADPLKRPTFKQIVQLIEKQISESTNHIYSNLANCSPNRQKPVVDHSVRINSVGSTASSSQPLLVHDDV
Chain of UniProt P07949 (whole entry, unmodified, looked up): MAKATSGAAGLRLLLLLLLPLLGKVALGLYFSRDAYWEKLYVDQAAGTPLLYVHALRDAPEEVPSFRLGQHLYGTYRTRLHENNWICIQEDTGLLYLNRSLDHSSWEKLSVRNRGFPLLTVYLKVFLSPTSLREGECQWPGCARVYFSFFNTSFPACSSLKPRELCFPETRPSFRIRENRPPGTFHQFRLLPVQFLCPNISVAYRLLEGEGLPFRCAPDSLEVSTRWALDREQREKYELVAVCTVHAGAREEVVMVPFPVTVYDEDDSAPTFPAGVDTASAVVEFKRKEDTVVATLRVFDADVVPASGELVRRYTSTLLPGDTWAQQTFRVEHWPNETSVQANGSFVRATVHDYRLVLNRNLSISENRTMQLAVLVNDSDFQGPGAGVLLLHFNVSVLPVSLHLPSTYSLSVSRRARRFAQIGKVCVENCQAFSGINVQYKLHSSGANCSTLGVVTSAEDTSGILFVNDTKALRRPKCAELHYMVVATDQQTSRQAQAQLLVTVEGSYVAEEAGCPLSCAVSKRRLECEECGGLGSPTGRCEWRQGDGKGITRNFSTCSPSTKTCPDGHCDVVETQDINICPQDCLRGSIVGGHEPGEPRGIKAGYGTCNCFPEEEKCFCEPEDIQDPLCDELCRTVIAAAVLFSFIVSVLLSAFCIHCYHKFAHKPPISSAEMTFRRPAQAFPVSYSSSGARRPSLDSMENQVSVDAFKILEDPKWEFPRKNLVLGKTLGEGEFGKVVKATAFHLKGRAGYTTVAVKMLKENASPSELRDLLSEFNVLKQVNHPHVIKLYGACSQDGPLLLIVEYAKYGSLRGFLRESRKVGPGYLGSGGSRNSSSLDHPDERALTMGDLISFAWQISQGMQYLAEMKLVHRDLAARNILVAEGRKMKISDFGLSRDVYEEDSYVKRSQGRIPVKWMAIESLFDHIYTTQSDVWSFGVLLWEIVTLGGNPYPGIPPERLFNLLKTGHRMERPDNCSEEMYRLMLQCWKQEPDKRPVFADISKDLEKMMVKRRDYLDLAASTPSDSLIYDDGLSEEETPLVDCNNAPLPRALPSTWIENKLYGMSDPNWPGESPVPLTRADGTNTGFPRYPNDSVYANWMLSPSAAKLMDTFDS
Chain of UniProt P42336 (whole entry, unmodified, looked up): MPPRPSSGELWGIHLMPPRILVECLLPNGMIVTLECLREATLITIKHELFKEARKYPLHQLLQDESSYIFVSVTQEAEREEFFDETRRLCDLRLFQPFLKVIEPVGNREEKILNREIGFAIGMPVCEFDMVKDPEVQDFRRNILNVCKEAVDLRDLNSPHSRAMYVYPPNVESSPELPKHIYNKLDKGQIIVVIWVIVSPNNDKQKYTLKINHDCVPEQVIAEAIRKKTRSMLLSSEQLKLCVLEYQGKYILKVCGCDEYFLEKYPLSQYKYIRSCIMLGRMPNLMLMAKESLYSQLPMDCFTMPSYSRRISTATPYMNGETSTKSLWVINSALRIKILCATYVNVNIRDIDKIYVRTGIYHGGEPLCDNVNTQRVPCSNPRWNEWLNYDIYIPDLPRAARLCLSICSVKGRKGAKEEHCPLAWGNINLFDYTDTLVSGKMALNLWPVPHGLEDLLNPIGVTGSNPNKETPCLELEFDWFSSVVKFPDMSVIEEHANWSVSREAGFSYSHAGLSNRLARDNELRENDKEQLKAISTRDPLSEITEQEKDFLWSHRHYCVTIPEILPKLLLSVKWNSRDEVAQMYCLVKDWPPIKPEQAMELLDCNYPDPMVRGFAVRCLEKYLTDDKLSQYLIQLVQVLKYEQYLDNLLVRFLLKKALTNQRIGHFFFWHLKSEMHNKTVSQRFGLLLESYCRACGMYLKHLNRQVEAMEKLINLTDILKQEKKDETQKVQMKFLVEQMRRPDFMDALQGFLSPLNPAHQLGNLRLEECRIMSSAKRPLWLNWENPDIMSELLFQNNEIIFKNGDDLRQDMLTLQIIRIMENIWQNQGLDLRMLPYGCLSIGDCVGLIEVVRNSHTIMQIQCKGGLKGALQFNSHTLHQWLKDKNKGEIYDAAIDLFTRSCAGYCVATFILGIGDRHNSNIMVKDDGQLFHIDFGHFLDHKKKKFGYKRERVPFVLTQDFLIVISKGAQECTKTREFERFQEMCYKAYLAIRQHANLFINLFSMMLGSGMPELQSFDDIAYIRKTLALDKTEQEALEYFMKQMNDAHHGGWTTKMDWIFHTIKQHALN

Study 1
Target: Vascular endothelial growth factor receptor 2 (KDR, Homo sapiens, UniProt P35968)
Chain of UniProt P35968 (whole entry, looked up): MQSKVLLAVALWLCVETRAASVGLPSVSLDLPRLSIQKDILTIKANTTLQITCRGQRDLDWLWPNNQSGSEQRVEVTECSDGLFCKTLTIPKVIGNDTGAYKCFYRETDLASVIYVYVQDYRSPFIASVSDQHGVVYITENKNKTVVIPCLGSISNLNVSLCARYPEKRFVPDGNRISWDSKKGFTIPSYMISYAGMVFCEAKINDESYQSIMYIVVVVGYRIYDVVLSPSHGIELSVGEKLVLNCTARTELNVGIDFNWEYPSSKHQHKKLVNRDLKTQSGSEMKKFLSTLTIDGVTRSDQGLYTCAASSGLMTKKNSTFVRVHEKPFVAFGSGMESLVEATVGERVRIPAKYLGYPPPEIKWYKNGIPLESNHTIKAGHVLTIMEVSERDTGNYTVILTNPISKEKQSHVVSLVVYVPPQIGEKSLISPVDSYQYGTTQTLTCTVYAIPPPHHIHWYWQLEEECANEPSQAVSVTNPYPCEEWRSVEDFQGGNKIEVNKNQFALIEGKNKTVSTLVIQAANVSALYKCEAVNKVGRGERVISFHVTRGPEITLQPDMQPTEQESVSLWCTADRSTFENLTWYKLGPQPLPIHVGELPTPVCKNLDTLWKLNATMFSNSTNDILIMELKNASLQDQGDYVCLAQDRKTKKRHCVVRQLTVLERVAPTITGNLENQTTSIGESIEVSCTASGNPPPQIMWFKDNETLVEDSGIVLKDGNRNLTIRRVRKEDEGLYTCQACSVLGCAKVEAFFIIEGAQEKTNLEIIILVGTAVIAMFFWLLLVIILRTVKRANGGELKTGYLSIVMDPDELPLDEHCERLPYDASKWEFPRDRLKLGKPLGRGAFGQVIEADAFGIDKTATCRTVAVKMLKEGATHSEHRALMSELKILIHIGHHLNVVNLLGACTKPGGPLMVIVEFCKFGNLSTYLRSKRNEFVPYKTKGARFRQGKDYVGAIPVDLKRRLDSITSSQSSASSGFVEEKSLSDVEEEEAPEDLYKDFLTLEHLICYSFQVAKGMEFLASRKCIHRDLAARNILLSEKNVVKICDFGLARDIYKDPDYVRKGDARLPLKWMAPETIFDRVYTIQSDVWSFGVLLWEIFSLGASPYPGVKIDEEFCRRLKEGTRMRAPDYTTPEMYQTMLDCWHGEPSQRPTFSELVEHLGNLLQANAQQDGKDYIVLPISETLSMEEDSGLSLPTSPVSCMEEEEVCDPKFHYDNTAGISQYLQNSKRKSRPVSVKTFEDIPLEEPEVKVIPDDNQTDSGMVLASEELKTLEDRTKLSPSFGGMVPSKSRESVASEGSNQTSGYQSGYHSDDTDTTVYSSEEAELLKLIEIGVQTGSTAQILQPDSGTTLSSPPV
Effect on: enzyme activity
Action: inhibitor
Tested at: 0.5 µM
Reference: control
SMILES | remaining activity [%]
C#Cc1cccc(Nc2ncnc3cc(OCCOC)c(OCCOC)cc23)c1 | 80.3
CC(C)[C@H](CO)Nc1nc(Nc2cc(N)cc(Cl)c2)c2ncn(C(C)C)c2n1 | 102
Cn1c2ccccc2c2c3c(c4c5ccccc5n(CCC#N)c4c21)CNC3=O | 57
COc1ccc(OC)c2c(=S)c3ccccc3[nH]c12 | 108
Nc1ncnc2n[nH]c(Nc3ccc(F)cc3)c12 | 104
COc1cc2nccc(Oc3ccc(NC(=S)NC(=O)c4ccccc4C)cc3)c2cc1OC | 74.1
O=C1NC(=O)C(c2cn(CCCO)c3ncccc23)=C1c1cnccn1 | 82.1
O=S(=O)(c1cccc2cnccc12)N1CCCNCC1 | 86.9
NCCNc1ncc(C(N)=O)c(Nc2cccc(C(F)(F)F)c2)n1 | 110
O=C(Nc1cccc(Nc2cc(Nc3cccc(C(F)(F)F)c3)ncn2)c1)C1CC1 | 101
O=C(O)c1ccc2c3c1cccc3c(=O)n1c3ccccc3nc21 | 101
Nc1[nH]nc2nc3ccccc3nc12 | 95.8
OCC(O)CCON=C1C(c2c(O)[nH]c3ccccc23)=Nc2ccccc21 (centres unmarked) | 56.4
Cc1cccc(-c2[nH]c(C(C)(C)C)nc2-c2ccc3c(c2)OCO3)n1 | 94.7
Oc1ccc(-c2nc(-c3ccncc3)c(-c3ccc(F)cc3)[nH]2)cc1 | 99.9
COc1cc2ncnc(Nc3ccc(Oc4ccccc4)cc3)c2cc1OC | 92.1
Cc1ccc(NC(=O)c2ccc(CN3CCN(C)CC3)cc2)cc1Nc1nc(-c2cccnc2)cs1 | 106
O=C1NC(=O)C(c2cn(CCCn3ccnc3)c3ccccc23)=C1Nc1ccccc1 | 90.2
O=c1c2ccccc2[nH]c(=S)n1CCN1CCC(=C(c2ccc(F)cc2)c2ccc(F)cc2)CC1 | 93.1
CCOC(=O)c1c(C)[nH]c(/C=C2\C(=O)Nc3ccccc32)c1C | 93.2
CO[C@H]1C[C@@H]2CC[C@@H](C)[C@@](O)(O2)C(=O)C(=O)N2CCCC[C@H]2C(=O)O[C@H]([C@H](C)C[C@@H]2CC[C@@H](O)[C@H](OC)C2)CC(=O)[C@H](C)/C=C(\C)[C@@H](O)[C@@H](OC)C(=O)[C@H](C)C[C@H](C)/C=C/C=C/C=C/1C | 98.1
Cc1nc(-c2ccccc2)c(-c2ccncc2)o1 | 85.2

Study 2
Structure (SMILES): CS(=O)(=O)N1CCCC(NC(=O)[C@H](CCC2CCCCC2)NC(=O)c2ccc(CNc3ncnc4c3nnn4-c3ccccc3)cc2)C1 (some centres unmarked)
Technique: competition with immobilised ligand
Tested at: 0.1 µM
target | effect on | remaining binding [%]
MAP4K3 (Homo sapiens, UniProt Q8IVH8) | cell-free assay | 75
RET (Homo sapiens, UniProt P07949, V804L) | cell-free assay | 83
MARK4 (Homo sapiens, UniProt Q96L34) | cell-free assay | 71
ALK (Homo sapiens, UniProt Q9UM73, C1156Y) | cell-free assay | 100
MINK1 (Homo sapiens, UniProt Q8N4C8) | cell-free assay | 85
CILK1 (Homo sapiens, UniProt Q9UPZ9) | binding | 100
SIK3 (Homo sapiens, UniProt Q9Y2K2) | cell-free assay | 78
TAOK2 (Homo sapiens, UniProt Q9UL54) | cell-free assay | 93
CAMK1D (Homo sapiens, UniProt Q8IU85) | cell-free assay | 97
RAF1 (Homo sapiens, UniProt P04049) | cell-free assay | 70
KIT (Homo sapiens, UniProt P10721, V559D) | cell-free assay | 93
STK10 (Homo sapiens, UniProt O94804) | cell-free assay | 100
PIK3CA (Homo sapiens, UniProt P42336, E545A) | cell-free assay | 100
Mast/stem cell growth factor receptor Kit, autoinhibited (KIT, Homo sapiens, UniProt P10721) | cell-free assay | 100
EGFR (Homo sapiens, UniProt P00533, del747-750/T751S) | cell-free assay | 94
WNK2 (Homo sapiens, UniProt Q9Y3S1) | cell-free assay | 100
PLK3 (Homo sapiens, UniProt Q9H4B4) | cell-free assay | 100
FLT3 (Homo sapiens, UniProt P36888, D835H) | cell-free assay | 94
EGFR (Homo sapiens, UniProt P00533, L858R/T790M) | cell-free assay | 84
ACVR2A (Homo sapiens, UniProt P27037) | cell-free assay | 68
VRK2 (Homo sapiens, UniProt Q86Y07) | cell-free assay | 91

Study 3
Target: ABI1, truncated, D143A, DHFR fusion (Arabidopsis thaliana, UniProt P49597)
Technique: DHFR PCA, dose-response
Medium: yeast
Notes: Hill fit, mean, not affinity
Together with: (+)-ABA, dose series
Reading: lower = more sensitive
Parent: PYL1, truncated, DHFR fusion (Arabidopsis thaliana, UniProt Q8VZS8); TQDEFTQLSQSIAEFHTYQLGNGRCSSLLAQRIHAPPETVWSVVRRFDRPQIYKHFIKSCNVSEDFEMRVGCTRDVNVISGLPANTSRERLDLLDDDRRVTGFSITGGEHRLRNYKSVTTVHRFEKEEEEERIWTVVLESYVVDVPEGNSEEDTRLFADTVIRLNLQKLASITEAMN
Variant | ABA EC50 [µM]
L93R | 3.66
K58T | 11.1
R98H | 11.3
V121A | 529
L156F | 3.55
S9M | 8.49
K126I | 1.76
V145E | 265

Study 4
Target: Ras GTPase-activating protein-binding protein 1, RRM domain (G3BP1, Homo sapiens, UniProt Q13283)
Chain of UniProt Q13283 (whole entry, looked up): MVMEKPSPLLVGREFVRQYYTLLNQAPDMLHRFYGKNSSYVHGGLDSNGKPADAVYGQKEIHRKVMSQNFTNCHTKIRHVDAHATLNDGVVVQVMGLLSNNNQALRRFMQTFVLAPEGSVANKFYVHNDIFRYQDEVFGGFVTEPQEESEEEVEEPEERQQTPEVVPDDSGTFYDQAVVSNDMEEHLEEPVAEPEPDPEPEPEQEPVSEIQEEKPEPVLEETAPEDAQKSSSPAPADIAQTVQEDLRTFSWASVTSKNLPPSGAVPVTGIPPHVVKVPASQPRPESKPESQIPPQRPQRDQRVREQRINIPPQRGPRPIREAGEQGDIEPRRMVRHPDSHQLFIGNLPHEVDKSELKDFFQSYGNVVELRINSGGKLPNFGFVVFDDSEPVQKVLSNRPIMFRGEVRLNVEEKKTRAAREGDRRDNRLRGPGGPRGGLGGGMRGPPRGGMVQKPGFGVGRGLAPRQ
Technique: RNA Bind-n-Seq
Form: RNA
Medium: in vitro
Tested at: 1 µM
Notes: whole 134-nt RNA, ends assumed
Together with: 150 mM KCl
Reference: input library
Reading: higher = stronger binding
Constant ends, left off below: GGGAGUUCUACAGUCCGACGAUC … UGGAAUUCUCGGGUGUCAAGG
Sequence | log2 enrichment
CAAGUCCUGUGCUACACAUCGUAUGUACCGAAUCGGCCCGGGCCCGGGCCCGGGGAAAGUAUUAUGUUACGCCGUUCGGAUCUGCACUUC | -0.926
CACAGACAACACGCACCCACACAGACACAGAGGGAAGGGGUUGGGAUGGGGACAGGGUGCACAGCAAAGCGGGGUAGGACCCCAGCCCCU | -0.0899
AGUCCUGUGCUACACAUCGUAUGUACCGAAUCGGGGUUUUUGGGGUGGGGAAAGGGGAAAGUAUUAUGUUACGCCGUUCGGAUCUGCACU | 1.05
UGGCCCUGGUGGCAUGCGGGGAGGAAGAGGUGGCCUCAUGGAUCGUGGUGGUCCCGGUGGAAUGUUCAGAGGUGGCCGUGGUGGAGGCAG | 1.22
AGUCCUGUGCUACACAUCGUAUGUACCGAAUCGGGAAAAGGGGAAAAGGAAAAGGGGAAAGUAUUAUGUUACGCCGUUCGGAUCUGCACU | 0.232
AAGUCCUGUGCUACACAUCGUAUGUACCGAAUCGGGUUUUUGGUUUUUGGUUUUUGGAAAGUAUUAUGUUACGCCGUUCGGAUCUGCACU | -0.11
UAACUUUAGAGGAGGAUCUGAUGGAUAUGGCAGUGGACGUGGAUUUGGGGAUGGCUAUAAUGGGUAUGGAGGAGGACCUGGAGGUUGCAA | -0.353
UUGACUAUAUUGUGGAGUAUGACUAUGAUGCUGUACAUGAUGAUGAAUUAACUAUUCGAGUUGGAGAAAUCAUCAGGAAUGUGAAAAAGC | -0.253
